Measurements collected from several papers.
Parts stem from different laboratories: compare values within a part only. “And” joins repeats or separate records; there may be more than shown.
UniProt Q52WX2, sequence (whole entry, looked up): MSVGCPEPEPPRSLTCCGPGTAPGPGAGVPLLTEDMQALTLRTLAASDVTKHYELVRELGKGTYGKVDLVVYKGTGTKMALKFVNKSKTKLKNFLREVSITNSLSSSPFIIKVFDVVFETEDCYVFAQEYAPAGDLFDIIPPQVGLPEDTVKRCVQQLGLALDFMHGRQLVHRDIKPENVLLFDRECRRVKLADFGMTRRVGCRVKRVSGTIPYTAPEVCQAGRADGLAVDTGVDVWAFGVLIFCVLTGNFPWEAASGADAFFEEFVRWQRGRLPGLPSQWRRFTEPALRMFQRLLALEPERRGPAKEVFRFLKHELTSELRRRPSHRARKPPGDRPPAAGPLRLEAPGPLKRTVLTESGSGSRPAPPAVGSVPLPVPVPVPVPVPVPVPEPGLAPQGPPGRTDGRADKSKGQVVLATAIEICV
UniProt P30291, sequence (whole entry, looked up): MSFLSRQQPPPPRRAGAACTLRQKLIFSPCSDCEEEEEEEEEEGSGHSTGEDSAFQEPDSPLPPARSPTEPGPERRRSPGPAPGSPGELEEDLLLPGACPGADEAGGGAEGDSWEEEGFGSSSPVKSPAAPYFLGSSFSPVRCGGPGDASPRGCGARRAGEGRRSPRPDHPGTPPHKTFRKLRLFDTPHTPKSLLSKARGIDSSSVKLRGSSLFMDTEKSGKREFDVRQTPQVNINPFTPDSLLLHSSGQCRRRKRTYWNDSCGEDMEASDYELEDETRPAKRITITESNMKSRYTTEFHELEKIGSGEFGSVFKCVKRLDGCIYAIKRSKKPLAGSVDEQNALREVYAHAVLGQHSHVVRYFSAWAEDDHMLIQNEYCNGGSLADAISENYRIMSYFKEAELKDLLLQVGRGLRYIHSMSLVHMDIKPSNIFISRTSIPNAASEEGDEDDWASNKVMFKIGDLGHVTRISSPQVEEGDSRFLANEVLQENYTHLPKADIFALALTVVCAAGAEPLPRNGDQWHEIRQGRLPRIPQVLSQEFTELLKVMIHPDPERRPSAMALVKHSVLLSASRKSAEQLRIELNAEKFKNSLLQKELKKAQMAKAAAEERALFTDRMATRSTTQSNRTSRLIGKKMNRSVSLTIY
UniProt Q9Y5S2, sequence (whole entry, looked up): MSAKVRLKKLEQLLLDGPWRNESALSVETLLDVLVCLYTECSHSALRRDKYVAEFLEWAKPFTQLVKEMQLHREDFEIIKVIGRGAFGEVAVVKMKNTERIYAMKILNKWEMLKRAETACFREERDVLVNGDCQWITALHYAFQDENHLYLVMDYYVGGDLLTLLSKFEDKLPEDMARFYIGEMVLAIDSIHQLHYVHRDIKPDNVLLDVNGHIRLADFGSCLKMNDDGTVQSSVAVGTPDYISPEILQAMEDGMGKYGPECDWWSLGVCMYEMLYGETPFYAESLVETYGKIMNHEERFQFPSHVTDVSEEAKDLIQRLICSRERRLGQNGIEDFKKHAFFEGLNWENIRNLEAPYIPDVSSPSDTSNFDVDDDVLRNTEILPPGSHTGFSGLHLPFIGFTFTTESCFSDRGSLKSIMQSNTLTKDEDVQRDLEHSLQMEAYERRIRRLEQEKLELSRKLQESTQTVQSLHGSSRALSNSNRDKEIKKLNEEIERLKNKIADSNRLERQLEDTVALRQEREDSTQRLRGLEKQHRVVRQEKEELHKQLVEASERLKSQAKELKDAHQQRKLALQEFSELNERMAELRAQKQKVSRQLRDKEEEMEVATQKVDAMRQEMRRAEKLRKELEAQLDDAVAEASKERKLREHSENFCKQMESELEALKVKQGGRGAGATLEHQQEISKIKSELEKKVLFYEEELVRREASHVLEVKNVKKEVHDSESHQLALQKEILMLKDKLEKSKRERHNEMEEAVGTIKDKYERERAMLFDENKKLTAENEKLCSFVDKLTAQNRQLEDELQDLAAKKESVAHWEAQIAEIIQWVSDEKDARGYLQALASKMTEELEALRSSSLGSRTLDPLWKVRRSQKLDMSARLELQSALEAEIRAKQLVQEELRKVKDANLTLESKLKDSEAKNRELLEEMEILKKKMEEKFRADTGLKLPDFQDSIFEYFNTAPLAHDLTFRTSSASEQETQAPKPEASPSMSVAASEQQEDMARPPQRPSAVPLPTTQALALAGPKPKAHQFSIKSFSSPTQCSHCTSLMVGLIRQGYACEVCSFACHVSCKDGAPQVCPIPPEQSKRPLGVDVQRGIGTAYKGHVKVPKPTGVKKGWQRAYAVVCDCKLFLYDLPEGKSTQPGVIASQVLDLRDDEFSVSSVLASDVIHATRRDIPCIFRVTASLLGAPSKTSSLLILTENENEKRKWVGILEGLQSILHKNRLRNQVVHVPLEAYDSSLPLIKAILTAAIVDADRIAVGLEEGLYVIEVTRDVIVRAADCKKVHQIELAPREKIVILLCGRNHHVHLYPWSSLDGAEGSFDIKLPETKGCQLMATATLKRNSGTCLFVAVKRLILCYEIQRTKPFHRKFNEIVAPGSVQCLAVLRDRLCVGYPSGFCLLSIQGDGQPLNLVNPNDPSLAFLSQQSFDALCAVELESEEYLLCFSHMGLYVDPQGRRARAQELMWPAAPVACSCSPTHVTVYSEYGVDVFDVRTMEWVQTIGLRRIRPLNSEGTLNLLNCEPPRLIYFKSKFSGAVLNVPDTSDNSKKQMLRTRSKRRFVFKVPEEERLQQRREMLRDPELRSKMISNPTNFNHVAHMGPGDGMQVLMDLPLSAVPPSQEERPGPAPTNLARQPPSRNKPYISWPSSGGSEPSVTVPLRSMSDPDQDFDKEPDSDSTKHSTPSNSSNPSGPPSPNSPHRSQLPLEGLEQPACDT
UniProt Q9BYP7, sequence (whole entry, looked up): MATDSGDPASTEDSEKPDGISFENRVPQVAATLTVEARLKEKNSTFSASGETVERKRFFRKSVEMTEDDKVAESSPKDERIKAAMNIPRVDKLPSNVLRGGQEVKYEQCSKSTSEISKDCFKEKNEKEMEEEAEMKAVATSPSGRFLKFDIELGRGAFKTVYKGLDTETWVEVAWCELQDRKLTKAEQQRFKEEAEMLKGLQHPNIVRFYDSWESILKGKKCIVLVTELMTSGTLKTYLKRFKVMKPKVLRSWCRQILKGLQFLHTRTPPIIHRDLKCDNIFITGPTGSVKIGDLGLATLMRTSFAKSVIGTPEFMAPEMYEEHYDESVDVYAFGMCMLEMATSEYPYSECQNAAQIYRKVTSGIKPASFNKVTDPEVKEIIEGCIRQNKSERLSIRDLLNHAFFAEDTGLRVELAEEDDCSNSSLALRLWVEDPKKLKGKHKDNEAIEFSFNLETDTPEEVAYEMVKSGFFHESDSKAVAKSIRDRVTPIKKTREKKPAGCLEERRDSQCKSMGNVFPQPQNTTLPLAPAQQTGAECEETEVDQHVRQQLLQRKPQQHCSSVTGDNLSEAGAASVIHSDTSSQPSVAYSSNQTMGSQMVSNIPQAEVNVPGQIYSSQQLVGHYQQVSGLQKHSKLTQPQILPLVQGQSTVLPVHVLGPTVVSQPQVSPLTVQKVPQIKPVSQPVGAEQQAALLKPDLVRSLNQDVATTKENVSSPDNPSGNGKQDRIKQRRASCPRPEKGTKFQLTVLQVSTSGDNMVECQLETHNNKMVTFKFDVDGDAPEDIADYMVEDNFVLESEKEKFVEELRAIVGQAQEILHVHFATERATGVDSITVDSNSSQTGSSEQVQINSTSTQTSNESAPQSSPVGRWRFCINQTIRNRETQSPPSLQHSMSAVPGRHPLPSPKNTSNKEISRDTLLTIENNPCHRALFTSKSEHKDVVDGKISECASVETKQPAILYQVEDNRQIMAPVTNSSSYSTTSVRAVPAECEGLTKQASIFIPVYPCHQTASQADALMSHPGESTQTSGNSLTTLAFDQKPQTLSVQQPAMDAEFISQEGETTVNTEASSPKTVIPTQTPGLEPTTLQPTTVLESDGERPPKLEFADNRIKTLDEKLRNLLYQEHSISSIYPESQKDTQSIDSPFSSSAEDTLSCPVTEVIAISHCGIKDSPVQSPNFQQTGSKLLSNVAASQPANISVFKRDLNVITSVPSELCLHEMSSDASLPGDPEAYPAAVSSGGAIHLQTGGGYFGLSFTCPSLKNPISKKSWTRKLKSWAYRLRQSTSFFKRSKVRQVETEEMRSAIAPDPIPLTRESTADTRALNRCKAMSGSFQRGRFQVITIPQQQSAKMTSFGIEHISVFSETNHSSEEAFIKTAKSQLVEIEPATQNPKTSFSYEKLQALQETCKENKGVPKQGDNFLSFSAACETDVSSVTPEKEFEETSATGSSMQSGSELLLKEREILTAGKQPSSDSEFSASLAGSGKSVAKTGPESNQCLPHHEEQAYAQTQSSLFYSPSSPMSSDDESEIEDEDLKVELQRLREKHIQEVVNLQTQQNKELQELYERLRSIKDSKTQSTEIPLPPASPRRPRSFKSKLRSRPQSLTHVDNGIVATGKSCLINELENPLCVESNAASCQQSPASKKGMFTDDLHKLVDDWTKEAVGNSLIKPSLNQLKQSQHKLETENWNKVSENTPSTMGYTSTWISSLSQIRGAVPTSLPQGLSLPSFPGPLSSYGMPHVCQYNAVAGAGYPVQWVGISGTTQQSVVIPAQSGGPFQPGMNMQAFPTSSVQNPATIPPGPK

Block 1
Organism: Plasmodium berghei
Mode: inhibitor
Cells: Huh-7
Strain: GFP-expressing sporozoites, liver stage
Tested at: 10 µM
Time: 24 h
Reference: untreated control
Structure (SMILES)	infection rate [%]
CN/C(=N\CCSCc1nc[nH]c1C)NC#N	90.6
CN(C)CC[C@@H](c1ccc(Cl)cc1)c1ccccn1	88.9
CC(=O)Nc1c(I)cc(I)c(C(=O)O)c1I	80.1
CC(=O)NO	89.7
CN1CCN(C(c2ccccc2)c2ccc(Cl)cc2)CC1 (stereo not drawn)	66.2
NS(=O)(=O)c1cc2c(cc1Cl)NC(C1CC3C=CC1C3)NS2(=O)=O (stereo not drawn)	98.1
CC=CC1=C(C(=O)O)N2C(=O)[C@@H](NC(=O)[C@H](N)c3ccc(O)cc3)[C@H]2SC1	118
NCCCCCC(=O)O	99.1
NCC[C@H](O)C(=O)N[C@@H]1C[C@H](N)[C@@H](O[C@H]2O[C@H](CN)[C@@H](O)[C@H](O)[C@H]2O)[C@H](O)[C@H]1O[C@H]1O[C@H](CO)[C@@H](O)[C@H](N)[C@H]1O	104
Cc1ccc(-c2cc(C(F)(F)F)nn2-c2ccc(S(N)(=O)=O)cc2)cc1	81.2
C[C@H](CCC(=O)O)[C@H]1CC[C@H]2[C@@H]3C(=O)C[C@@H]4CC(=O)CC[C@]4(C)[C@H]3CC(=O)[C@]12C	107
Nc1ncnc2c1ncn2[C@@H]1O[C@H](COP(=O)(O)O)[C@@H](O)[C@H]1O	24.6
CC(C)NC(=N)NC(=N)Nc1ccc(Cl)cc1	5.06
O=C(Nc1ccc([N+](=O)[O-])cc1Cl)c1cc(Cl)ccc1O	1.8
Oc1c(Cl)cc(Cl)c2cccnc12	34.8
CC1(C)[C@@H](OC(=O)CCC(=O)O)CC[C@]2(C)[C@H]3C(=O)C=C4[C@@H]5C[C@@](C)(C(=O)O)CC[C@]5(C)CC[C@@]4(C)[C@]3(C)CC[C@@H]12	121
CN(C)CCCO[C@@H]1[C@H]2OC(C)(C)O[C@H]2O[C@@H]1[C@H](O)CO	109
NS(=O)(=O)c1cc(C2(O)NC(=O)c3ccccc32)ccc1Cl (stereo not drawn)	101
CS(=O)(=O)OCCCCOS(C)(=O)=O	106

Block 2
Target: Serine/threonine-protein kinase VRK1 (VRK1, Homo sapiens, UniProt Q99986)
Observed: enzyme activity
Mode: inhibitor
Tested at: 0.5 µM
Reference: control
Target sequence (Q99986 1-396): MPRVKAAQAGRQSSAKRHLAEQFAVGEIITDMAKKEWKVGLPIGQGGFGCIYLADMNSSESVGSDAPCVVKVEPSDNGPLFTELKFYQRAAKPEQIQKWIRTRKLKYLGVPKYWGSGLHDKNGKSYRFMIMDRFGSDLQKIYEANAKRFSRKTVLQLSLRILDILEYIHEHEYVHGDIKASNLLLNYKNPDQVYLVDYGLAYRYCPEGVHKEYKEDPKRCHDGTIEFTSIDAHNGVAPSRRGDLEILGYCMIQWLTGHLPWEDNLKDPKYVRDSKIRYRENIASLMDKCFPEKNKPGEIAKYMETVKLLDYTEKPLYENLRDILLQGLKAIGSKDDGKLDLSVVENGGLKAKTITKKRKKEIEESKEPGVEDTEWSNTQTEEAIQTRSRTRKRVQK
SMILES	remaining activity [%]
Oc1cccc(-c2nc(N3CCOCC3)c3oc4ncccc4c3n2)c1	98.4
CCCCc1c(-c2ccc(OC)cc2)[nH]c2nccnc12	95.5
COc1ccc2c(c1)c(C1=C(c3c[nH]c4ccccc34)C(=O)NC1=O)cn2CCCN(C)C	76.7
CCCNC(=O)Nc1ccc(Oc2ncnc3cc(OC)c(OC)cc23)cc1Cl	104
O=c1cc(N2CCOCC2)oc2c(-c3ccccc3)cccc12	85.4
c1ccc(-c2n[nH]c3c2oc2ccccc23)cc1	83.1
N#Cc1cnc2cnc(NCc3cccnc3)cc2c1Nc1ccc(F)c(Cl)c1	99.2
O=C1NC(=O)c2c1c1c3ccccc3[nH]c1n1cncc21	78.1
O=C1Nc2ccc(Br)cc2/C1=C/c1cc2c([nH]1)CCCC2	108
O=C(c1cc2cc(O)ccc2[nH]1)c1cc2cc(O)ccc2[nH]1	85.3
O=C1NC(=O)c2c1c1c3ccccc3[nH]c1c1[nH]c3cc(Br)ccc3c21	92.3
Cc1ccc(S(=O)(=O)/C=C/C#N)cc1	105
Cc1cc(Nc2cc(N3CCN(C)CC3)nc(Sc3ccc(NC(=O)C4CC4)cc3)n2)[nH]n1	107
COc1ccc(COc2ccc(Cc3cnc(N)nc3N)cc2OC)cc1	91.4
CN(C)S(=O)(=O)c1ccc2c(c1)/C(=C/c1cc3c([nH]1)CCCC3)C(=O)N2	104
CN1CCN(c2ccc3nc(-c4c(N)c5c(F)cccc5[nH]c4=O)[nH]c3c2)CC1	98.5
O=C1Cc2c([nH]c3ccc(Br)cc23)-c2ccccc2N1	87.3
O=Nc1c(-c2c(O)[nH]c3cc(Br)ccc23)[nH]c2ccccc12	98
COc1cccc(-c2cc(=O)c3ccccc3o2)c1N	89.4
c1ccc2c(-c3ccncc3)c[nH]c2c1	101
O=C1Nc2ccccc2/C1=C\c1c(Cl)[nH]c2ccccc12	104

Block 3
Target: Calcium/calmodulin-dependent protein kinase type II subunit alpha (CAMK2A, Homo sapiens, UniProt Q9UQM7)
UniProt Q9UQM7, sequence (whole entry, looked up): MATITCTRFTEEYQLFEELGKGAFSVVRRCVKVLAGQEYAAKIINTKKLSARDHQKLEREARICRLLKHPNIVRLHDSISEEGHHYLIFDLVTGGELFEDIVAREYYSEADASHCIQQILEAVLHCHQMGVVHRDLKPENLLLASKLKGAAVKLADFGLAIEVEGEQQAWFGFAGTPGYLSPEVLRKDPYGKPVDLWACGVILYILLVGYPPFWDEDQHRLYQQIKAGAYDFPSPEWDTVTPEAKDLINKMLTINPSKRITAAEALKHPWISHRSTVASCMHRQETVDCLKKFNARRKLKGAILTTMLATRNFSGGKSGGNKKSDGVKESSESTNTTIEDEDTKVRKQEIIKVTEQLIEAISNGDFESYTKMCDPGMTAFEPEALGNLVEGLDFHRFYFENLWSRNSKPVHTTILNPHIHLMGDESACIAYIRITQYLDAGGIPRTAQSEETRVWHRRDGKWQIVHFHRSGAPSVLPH
Observed: enzyme activity
Mode: inhibitor
Tested at: 10 µM
Structure (SMILES)	inhibition
O=P(O)(O)OC[C@H](O)CO	6%
C=CC1=C(C(=O)O)N2C(=O)[C@@H](NC(=O)/C(=N\OCC(=O)O)c3csc(N)n3)[C@H]2SC1	-1%
CO[C@@H]1[C@@H](OC)[C@H](C)[C@@](O)(CC(=O)O)O[C@H]1[C@H](C)[C@H]1O[C@@]2(CC[C@@](C)([C@H]3CC[C@@](C)([C@@H]4O[C@@H]([C@H]5O[C@](C)(O)[C@H](C)C[C@@H]5C)C[C@@H]4O[C@@H]4C[C@H](OC)[C@@H](OC)[C@H](C)O4)O3)O2)C[C@H](O)[C@H]1C	-11%
Cc1onc(-c2ccccc2)c1C(=O)N[C@@H]1C(=O)N2[C@@H]1SC(C)(C)[C@@H]2C(=O)O	8%
OCCN1CCN(CC/C=C2/c3ccccc3Sc3ccc(Cl)cc32)CC1	-3%
O=C(O)CCSC[C@H]1O[C@@H]2O[C@H]3[C@H](O)[C@@H](O)[C@@H](O[C@H]4[C@H](O)[C@@H](O)[C@@H](O[C@H]5[C@H](O)[C@@H](O)[C@@H](O[C@H]6[C@H](O)[C@@H](O)[C@@H](O[C@H]7[C@H](O)[C@@H](O)[C@@H](O[C@H]8[C@H](O)[C@@H](O)[C@@H](O[C@H]9[C@H](O)[C@@H](O)[C@@H](O[C@H]1[C@H](O)[C@H]2O)O[C@@H]9CSCCC(=O)O)O[C@@H]8CSCCC(=O)O)O[C@@H]7CSCCC(=O)O)O[C@@H]6CSCCC(=O)O)O[C@@H]5CSCCC(=O)O)O[C@@H]4CSCCC(=O)O)O[C@@H]3CSCCC(=O)O	-6%
CNC(=O)c1ccc(N2C(=S)N(c3cnc(C#N)c(C(F)(F)F)c3)C(=O)C23CCC3)cc1F	-3%
C[C@H](CCC(=O)O)[C@H]1CC[C@H]2[C@@H]3[C@@H](O)C[C@@H]4C[C@H](O)CC[C@]4(C)[C@H]3C[C@H](O)[C@]12C	-31%
N#CS	7%
C[C@H](CC[C@@H](O)C(C)(C)O)[C@H]1CC[C@@]2(C)[C@@H]3CC=C4[C@@H](CC[C@H](O)C4(C)C)[C@]3(C)C(=O)C[C@]12C	15%
NCc1ccccc1O	16%
CC[C@@H]([C@H](C)O)n1ncn(-c2ccc(N3CCN(c4ccc(OC[C@@H]5CO[C@@](Cn6cncn6)(c6ccc(F)cc6F)C5)cc4)CC3)cc2)c1=O	-6%
CC1(C)[C@@H](OC(=O)CCC(=O)O)CC[C@]2(C)[C@H]3C(=O)C=C4[C@@H]5C[C@@](C)(C(=O)O)CC[C@]5(C)CC[C@@]4(C)[C@]3(C)CC[C@@H]12	-3%
CCc1nc(C(N)=O)c(Nc2ccc(N3CCC(N4CCN(C)CC4)CC3)c(OC)c2)nc1NC1CCOCC1	-0.04% and 0.01%
OC[C@H]1O[C@@H](Oc2cc(O)cc(C=Cc3ccc(O)cc3)c2)[C@H](O)[C@@H](O)[C@@H]1O (mixture of isomers)	-24%
CC(C)(C)C(=O)OCOP(=O)(COCCn1cnc2c(N)ncnc21)OCOC(=O)C(C)(C)C	1%

Block 4
SMILES: C[C@@H]1CN(c2cc(-c3nn(C)c4ccc(OC5(C)CC5)cc34)ncn2)C[C@H](C)O1
Observed: cell-free assay
Technique: competition with immobilised ligand
Tested at: 1 µM
target	remaining binding [%]
PLK1 (Homo sapiens, UniProt P53350)	74
CSNK1D (Homo sapiens, UniProt P48730)	84
LIM domain kinase 2 (LIMK2, Homo sapiens, UniProt P53671)	92
Tyrosine-protein kinase ABL1, non-phosphorylated (ABL1, Homo sapiens, UniProt P00519, F317L)	67
HCK (Homo sapiens, UniProt P08631)	96
BMP2K (Homo sapiens, UniProt Q9NSY1)	100
MAP2K4 (Homo sapiens, UniProt P45985)	82
SBK1 (Homo sapiens, UniProt Q52WX2)	62
TTK (Homo sapiens, UniProt P33981)	100
CSNK2A2 (Homo sapiens, UniProt P19784)	86
MAP3K19 (Homo sapiens, UniProt Q56UN5)	68
EGFR (Homo sapiens, UniProt P00533, del746-750)	100
DYRK1B (Homo sapiens, UniProt Q9Y463)	100
STK36 (Homo sapiens, UniProt Q9NRP7)	93
MAP3K4 (Homo sapiens, UniProt Q9Y6R4)	100
WEE1 (Homo sapiens, UniProt P30291)	100
CDC42BPB (Homo sapiens, UniProt Q9Y5S2)	100
MAPK11 (Homo sapiens, UniProt Q15759)	88
WNK3 (Homo sapiens, UniProt Q9BYP7)	91
PRKD3 (Homo sapiens, UniProt O94806)	64
CSNK1A1L (Homo sapiens, UniProt Q8N752)	78
CDK17 (Homo sapiens, UniProt Q00537)	88
DMPK (Homo sapiens, UniProt Q09013)	100
CHUK (Homo sapiens, UniProt O15111)	75
Aurora kinase C (AURKC, Homo sapiens, UniProt Q9UQB9)	100
